Published values of several laboratories.
Compare with care: the assays were run in different laboratories. Values joined by “and” are separate records of one study, mostly repeats; a detail may differ. ± gives the spread as reported.

SMILES | assay | test system | conditions | scale | measurement | result
COc1ccc(CNc2ccc3c(c2)S(=O)(=O)C=C3)cc1 |  | male C57BL/6 mice, blood | intraperitoneal, 20 mg/kg, day 8, group average |  | red cell distribution width CV | 0.15%
O=C(CN1C(=O)C2(CCN(C(=O)c3ccc4[nH]ncc4n3)CC2)c2c(Br)cccc21)NCC(F)(F)F |  | C57BL/6 mice, male | intraperitoneal, 10 mg/kg |  | bioavailability | 79 ± 25%
CSCC[C@H](N)C(=O)N[C@@H](C)C(=O)N[C@@H](CCCNC(=N)N)C(=O)N[C@@H](CCCNC(=N)N)C(=O)N[C@@H](CC(=O)O)C(=O)N[C@@H](CCCCN)C(=O)N[C@H](C(=O)N[C@@H](CC(=O)O)C(=O)N[C@@H](Cc1ccccc1)C(=O)N[C@@H](C)C(=O)N[C@@H](CCCNC(=N)N)C(=O)N[C@@H](CCCNC(=N)N)C(=O)N[C@@H](CCCNC(=N)N)C(=O)N[C@@H](CCCNC(=N)N)C(=O)NCCCCCC(=O)NCCCCC(NC(=O)CCCCCNC(=O)[C@H](CCCNC(=N)N)NC(=O)[C@H](CCCNC(=N)N)NC(=O)[C@H](CCCNC(=N)N)NC(=O)[C@H](CCCNC(=N)N)NC(=O)[C@H](C)NC(=O)[C@H](Cc1ccccc1)NC(=O)[C@H](CC(=O)O)NC(=O)[C@@H](NC(=O)[C@H](CCCCN)NC(=O)[C@H](CC(=O)O)NC(=O)[C@H](CCCNC(=N)N)NC(=O)[C@H](CCCNC(=N)N)NC(=O)[C@H](C)NC(=O)[C@@H](N)CCSC)[C@@H](C)O)C(=O)NCCCCC(NC(=O)C(CCCCNC(=O)CCCCCNC(=O)[C@H](CCCNC(=N)N)NC(=O)[C@H](CCCNC(=N)N)NC(=O)[C@H](CCCNC(=N)N)NC(=O)[C@H](CCCNC(=N)N)NC(=O)[C@H](C)NC(=O)[C@H](Cc1ccccc1)NC(=O)[C@H](CC(=O)O)NC(=O)[C@@H](NC(=O)[C@H](CCCCN)NC(=O)[C@H](CC(=O)O)NC(=O)[C@H](CCCNC(=N)N)NC(=O)[C@H](CCCNC(=N)N)NC(=O)[C@H](C)NC(=O)[C@@H](N)CCSC)[C@@H](C)O)NC(=O)CCCCCNC(=O)[C@H](CCCNC(=N)N)NC(=O)[C@H](CCCNC(=N)N)NC(=O)[C@H](CCCNC(=N)N)NC(=O)[C@H](CCCNC(=N)N)NC(=O)[C@H](C)NC(=O)[C@H](Cc1ccccc1)NC(=O)[C@H](CC(=O)O)NC(=O)[C@@H](NC(=O)[C@H](CCCCN)NC(=O)[C@H](CC(=O)O)NC(=O)[C@H](CCCNC(=N)N)NC(=O)[C@H](CCCNC(=N)N)NC(=O)[C@H](C)NC(=O)[C@@H](N)CCSC)[C@@H](C)O)C(N)=O)[C@@H](C)O (stereo partly drawn) |  | C57BL/6 mouse female, spleen | dose not given, 6 h | relative to: total | tissue distribution | 1.26% and 1.04%
CC[C@H](C)[C@H](NC(=O)[C@H](C)NC(=O)CNC(=O)[C@H](CCCCN)NC(=O)[C@@H](NC(=O)[C@H](CC(C)C)NC(=O)[C@H](C)NC(=O)CNC(=O)[C@H](CC(C)C)NC(=O)[C@@H](N)Cc1ccccc1)[C@@H](C)CC)C(=O)N[C@@H](Cc1c[nH]cn1)C(=O)NCC(=O)NCC(=O)N[C@@H](CCCNC(=N)N)C(=O)N[C@@H](Cc1ccccc1)C(=O)N[C@H](C(=O)N[C@@H](Cc1c[nH]cn1)C(=O)NCC(=O)N[C@@H](CCSC)C(=O)N[C@H](C(=O)N[C@@H](CCC(N)=O)C(=O)N[C@@H](CC(N)=O)C(=O)N[C@@H](Cc1c[nH]cn1)C(=O)N[C@@H](Cc1c[nH]cn1)C(N)=O)[C@@H](C)CC)[C@@H](C)CC |  | zebrafish embryos 28 hpf, E3 medium | 24 h |  | chronic toxic concentration | 25 µM
CN[C@H](CC(C)C)C(=O)N[C@H]1C(=O)N[C@@H](CC(N)=O)C(=O)N[C@H]2C(=O)N[C@H]3C(=O)N[C@H](C(=O)N[C@H](C(=O)O)c4cc(O)cc(O)c4-c4cc3ccc4O)[C@H](O)c3ccc(c(Cl)c3)Oc3cc2cc(c3O[C@@H]2O[C@H](CO)[C@@H](O)[C@H](O)[C@H]2O[C@H]2C[C@](C)(NCc3ccc(-c4ccc(Cl)cc4)cc3)[C@H](O)[C@H](C)O2)Oc2ccc(cc2Cl)[C@H]1O |  | mouse | intravenous |  | MTD | 75 mg/kg
CC(C)[C@@H]1NC(=O)CNC(=O)[C@H](CC(N)=O)NC(=O)[C@H](CCCNC(=N)N)NC(=O)[C@H](Cc2ccc(O)cc2)NC(=O)[C@H](C(C)C)NC(=O)[C@@H](NC(=O)[C@@H](NC(=O)[C@H](CC(N)=O)NC(=O)[C@H](Cc2c[nH]c3ccccc23)NC(=O)[C@H](C)NC(=O)[C@H](Cc2ccccc2)NC(=O)CNC(=O)[C@H](CCCCN)NC(=O)[C@H](Cc2ccccc2)NC(=O)[C@H](Cc2ccccc2)NC(=O)[C@H](CCCCN)NC(=O)OCC2c3ccccc3-c3ccccc32)C(C)C)CSSC[C@@H](C(=O)N[C@@H](Cc2c[nH]cn2)C(=O)N[C@@H](CCCNC(=N)N)C(=O)N[C@@H](CCCNC(=N)N)C(=O)N[C@@H](C)C(=O)N[C@@H](CC(N)=O)C(N)=O)NC(=O)[C@H](C(C)C)NC(=O)[C@H](CCCNC(=N)N)NC1=O |  | ICR mice, serum | intraperitoneal, 10 mg/kg, day 5 |  | creatinine | 83.2 ± 3.68 µmol/L
CC(C)C[C@@H](NC(=O)[C@@H](CCCNC(=N)N)NC(=O)[C@@H](Cc1c[nH]cn1)NC(=O)[C@@H](Cc1c[nH]c2ccccc12)NC(=O)[C@@H](Cc1c[nH]cn1)NC(=O)[C@@H](Cc1ccccc1)NC(=O)[C@H](NC(=O)[C@@H](Cc1ccc(O)cc1)NC(=O)CNC(=O)CNC(=O)CCOCCOCCOCCNC(=O)CN1CCN(CC(=O)O)CCN(CC(=O)O)CC1)[C@H](C)O)C(=O)N[C@H](CC(N)=O)C(=O)N1CCC[C@@H]1C(=O)O [gallium-68 labelled] |  | C57BL/6 mice, male | intravenous, 1.85 MBq, 120 min | relative to: tumour over lung | tissue ratio | 5.6 ± 0.66
CC(C)=CCC/C(C)=C/CCn1cc(CC(P(=O)(O)O)P(=O)(O)O)nn1 |  | mouse CD-1 | intravenous, 0.3 mg/kg, 2 h | relative to: dose | biliary excretion | 0.07%
CC[C@H](C)[C@H](NC(=O)CNC(=O)[C@H](CCSC)NC(=O)[C@H](CCC(N)=O)NC(=O)[C@H](C)NC(=O)[C@H](CCC(N)=O)NC(=O)[C@@H](NC(=O)[C@H](CC(C)C)NC(=O)[C@H](C)NC(=O)[C@H](CO)NC(=O)[C@H](CCSC)NC(=O)[C@H](CCC(=O)O)NC(=O)[C@H](CC(C)C)NC(=O)[C@H](Cc1ccc(O)cc1)NC(=O)[C@H](CO)NC(=O)[C@H](CCC(=O)O)NC(=O)[C@H](CCC(N)=O)NC(=O)[C@H](CCCNC(=N)N)NC(=O)[C@H](CCCCN)NC(=O)[C@H](CC(=O)O)NC(=O)[C@H](CC(C)C)NC(=O)[C@H](CC(N)=O)NC(=O)[C@H](Cc1ccccc1)NC(=O)[C@H](CCC(=O)O)NC(=O)[C@H](CCCCN)NC(=O)[C@@H](NC(=O)[C@H](CC(C)C)NC(=O)[C@H](CCC(=O)O)NC(=O)[C@H](CCC(=O)O)NC(=O)[C@@H](NC(=O)[C@@H](NC(=O)[C@H](CCCNC(=N)N)NC(=O)[C@H](CCCCN)NC(=O)[C@H](C)NC(=O)[C@H](Cc1ccccc1)NC(=O)[C@H](CCC(=O)O)NC(=O)[C@H](CCC(=O)O)NC(=O)[C@H](CC(C)C)NC(=O)[C@@H](N)CO)C(C)C)C(C)C)C(C)C)[C@@H](C)CC)C(=O)N[C@@H](CO)C(=O)N[C@@H](CCC(=O)O)C(=O)N[C@@H](CCCNC(=N)N)C(=O)N[C@H](C(=O)N[C@H](C(=O)N[C@@H](CCC(=O)O)C(=O)N[C@H](C(=O)N[C@H](C(=O)N[C@@H](CC(C)C)C(=O)N[C@@H](CCCNC(=N)N)C(=O)N[C@@H](Cc1c[nH]cn1)C(=O)N[C@@H](C)C(=O)N[C@@H](C)C(=O)N[C@@H](CCC(N)=O)C(=O)N[C@H](C(=O)N[C@@H](CC(C)C)C(=O)N[C@@H](CCCCN)C(=O)O)[C@@H](C)O)C(C)C)[C@@H](C)CC)[C@@H](C)CC)[C@@H](C)CC |  | male mouse, plasma | intravenous, 1 mg/kg |  | AUC(0-inf) | 25600 ng·h/mL
CC[C@H](C)[C@H](NC(=O)[C@H](Cc1ccc(O)cc1)NC(=O)[C@@H](NC(=O)[C@H](CCCNC(=N)N)NC(=O)[C@@H](N)CC(=O)O)C(C)C)C(=O)N[C@@H](Cc1c[nH]cn1)C(=O)N1CCC[C@H]1C(=O)O | noncompartmental | Beagle dogs, both sexes, plasma | subcutaneous, 10 mg/kg/day, day 27 |  | AUC | 790 ± 210 ng·h/mL
O=C1NC2(CC2)COc2ncc(F)cc2[C@H]2COCCN2c2ccn3ncc1c3n2 |  | Sprague-Dawley rat, female, brain | oral, 5 mg/kg/day, 4 weeks, end of treatment |  | organ-to-body weight ratio | 0.549 ± 0.04%
N=C(N)NCCC[C@H](NC(=O)[C@H](CCCNC(=N)N)NC(=O)[C@H](CCCNC(=N)N)NC(=O)[C@H](CCC(N)=O)NC(=O)[C@H](CCCNC(=N)N)NC(=O)[C@H](CCCNC(=N)N)NC(=O)[C@H](CCCCN)NC(=O)[C@H](CCCCN)NC(=O)[C@H](CCCNC(=N)N)NC(=O)CNC(=O)[C@H](Cc1ccc(O)cc1)NC(=O)[C@H](Cc1ccccc1)NC(=O)[C@H](Cc1ccccc1)NC(=O)[C@H](Cc1ccccc1)NC(=O)OCC1c2ccccc2-c2ccccc21)C(=O)O |  | C57BL/6 mice | intraperitoneal, 10 mg/kg, 6 h | direction not given | health score | 5

Some of these lines once more:
SMILES | assay | test system | conditions | scale | measurement | result
COc1ccc(CNc2ccc3c(c2)S(=O)(=O)C=C3)cc1 |  | male C57BL/6 mice, blood | intraperitoneal, 20 mg/kg, day 8, group average |  | red cell distribution width CV | 0.15%
O=C(CN1C(=O)C2(CCN(C(=O)c3ccc4[nH]ncc4n3)CC2)c2c(Br)cccc21)NCC(F)(F)F |  | C57BL/6 mice, male | intraperitoneal, 10 mg/kg |  | bioavailability | 79 ± 25%
